Measurements pooled from the literature.
Lines come from different studies, so protocols differ. Several values in a cell are separate wells, animals, samples, runs or records. ± gives the spread as reported.
rep main protease: Replicase polyprotein 1ab, main protease (rep, Severe acute respiratory syndrome coronavirus 2, UniProt P0DTD1)
Spike glycoprotein: Spike glycoprotein (Severe acute respiratory syndrome coronavirus 2, UniProt P0DTC2)

| SMILES | tested on | test | system | setting | scale | quantity | result |
| --- | --- | --- | --- | --- | --- | --- | --- |
| O=C(NC[C@@H]1Cc2ccccc2CN1C(=O)c1noc2c1CCCC2)c1cn[nH]c(=O)c1 | rep main protease | enzyme activity, inhibitor |  | 5 µM, mean of runs |  | inhibition | 12.1% |
| CC[C@H](CC[C@@H](C)[C@H]1CC[C@H]2[C@@H]3CC=C4C[C@@H](O[C@@H]5O[C@H](CO)[C@@H](O)[C@H](O)[C@H]5O)CC[C@]4(C)[C@H]3CC[C@]12C)C(C)C | Spike glycoprotein | binding, BLI |  |  |  | koff | 252 s⁻¹ |
| O=C(NC[C@@H]1C[C@H]2CC[C@@H]1N(C(=O)c1ccc3n[nH]nc3n1)C2)[C@@H]1CCc2n[nH]c(=O)n2C1 | rep main protease | enzyme activity, inhibitor |  | 5 µM, run 1 |  | inhibition | 14.4% |
| CCCC[C@@H](C=O)NC(=O)[C@H](CC(C)C)NC(=O)OCc1ccccc1 | rep main protease | reporter gene (mKate2), inhibitor |  | 20 µM |  | inhibition | 1.5% |
| O=C(NC[C@H](NC(=O)c1cncc2sccc12)c1ccc2ccccc2c1)c1cncs1 | rep main protease | enzyme activity, inhibitor |  | 5 µM, run 2 |  | inhibition | 12.5% |
| CC[C@H](C)[C@H](NC(=O)[C@@H]1CCCN1C(=O)[C@H](C)NC(=O)[C@@H]1CSSC[C@@H]2NC(=O)[C@H](CC(=O)O)NC(=O)[C@H](CCCNC(=N)N)NC(=O)[C@H](CCC(=O)O)NC(=O)[C@H](CCCNC(=N)N)NC(=O)CNC(=O)[C@H](CC(=O)O)NC(=O)[C@@H]3CSSC[C@H](NC(=O)[C@H](CCC(=O)O)NC(=O)[C@H](CC(C)C)NC(=O)CNC(=O)[C@H](C)NC(=O)[C@H](CSSC[C@H](NC(=O)[C@H](Cc4ccccc4)NC(=O)[C@@H](N)CO)C(=O)N[C@@H](CC(C)C)C(=O)N[C@@H](C(C)C)C(=O)N[C@@H](CCCCN)C(=O)N[C@@H](Cc4c[nH]c5ccccc45)C(=O)N[C@@H](CCCCN)C(=O)N[C@@H](CCC(N)=O)C(=O)N3)NC2=O)C(=O)N[C@@H](Cc2c[nH]c3ccccc23)C(=O)N[C@@H](CCCCN)C(=O)N[C@@H](CCCNC(=N)N)C(=O)N[C@@H](CO)C(=O)NCC(=O)N[C@@H](CC(N)=O)C(=O)N[C@@H](CCCCN)C(=O)N[C@@H](CO)C(=O)N[C@@H](CO)C(=O)N[C@@H](C(C)C)C(=O)N1)C(=O)N[C@H](C(=O)O)[C@@H](C)O | ASIC1 (Homo sapiens, UniProt P78348) | outside-out patch clamp | HEK-293T ASIC1a knockout | 100 nM, pH 6, wild type, 10-90% rise |  | rise time | 88 ± 26 ms |
| CC[C@H](C)[C@H](NC(=O)[C@H](CC(C)C)NC(=O)[C@H](Cc1c[nH]c2ccccc12)NC(=O)[C@H](CCC(N)=O)NC(=O)[C@@H](NC(=O)[C@H](Cc1ccccc1)NC(=O)[C@H](C)NC(=O)[C@H](CCCCNC(=O)COCCOCCNC(=O)COCCOCCNC(=O)CC[C@H](NC(=O)CCCCCCCCCCCCCCCCCCC(=O)O)C(=O)O)NC(=O)[C@H](CCC(N)=O)NC(=O)[C@H](C)NC(=O)[C@@H](NC(=O)[C@H](CCCCN)NC(=O)[C@H](CC(=O)O)NC(=O)[C@H](CC(C)C)NC(=O)C(C)(C)NC(=O)[C@@H](NC(=O)[C@H](CO)NC(=O)[C@H](Cc1ccc(O)cc1)NC(=O)[C@H](CC(=O)O)NC(=O)[C@H](CO)NC(=O)[C@@H](NC(=O)[C@H](Cc1ccccc1)NC(=O)[C@@H](NC(=O)CNC(=O)[C@H](CCC(=O)O)NC(=O)C(C)(C)NC(=O)[C@@H](N)Cc1ccc(O)cc1)[C@@H](C)O)[C@@H](C)O)[C@@H](C)CC)[C@@H](C)CC)C(C)C)C(=O)N[C@@H](C)C(=O)NCC(=O)NCC(=O)N1CCC[C@H]1C(=O)N[C@@H](CO)C(=O)N[C@@H](CO)C(=O)NCC(=O)N[C@@H](C)C(=O)N1CCC[C@H]1C(=O)N1CCC[C@H]1C(=O)N1CCC[C@H]1C(=O)N[C@@H](CO)C(N)=O |  | refers to: treatment-emergent catheter site erythema | healthy subjects | 1.5 mg, multiple ascending dose |  | subjects with adverse event | 16.7% |
| Nc1ncnc2c([C@@H]3N[C@H](CO)[C@@H](O)[C@H]3O)c[nH]c12 | Marburg virus | surface glycoprotein expression | HeLa, Musoke | 25 µM, 12 h |  | inhibition | 88.9% |
| Nc1ncnc2c1ncn2CCOC(=O)c1ccc(S(=O)(=O)F)cc1 | cya (Bacillus anthracis, UniProt P40136) |  |  |  |  | kinact | 0.000183 s⁻¹ |
| CC#CCn1c(N2CCC[C@@H](N)C2)nc2c1c(=O)n(Cc1nc(C)c3ccccc3n1)c(=O)n2C | rep main protease | reporter gene (mKate2), inhibitor |  | 20 µM |  | inhibition | -0.552% |
| Cc1cncc(CC(=O)N2CC3(CC[C@H](CNC(=O)[C@@]4(O)CCc5ccccc5C4)O3)C2)c1 | rep main protease | enzyme activity, inhibitor |  | 5 µM, mean of runs |  | inhibition | 13.5% |
| CCc1c(C(=O)C(N)=O)c2c(OCC(=O)O)cccc2n1Cc1ccccc1 | Daboia russelii venom phospholipase A2 | enzyme activity, inhibitor | MP population | 0.1 µM, added: NOB substrate | reference: venom alone | remaining activity | 90.2% and 95.6% and 100% |
| CS(=O)(=O)n1cc2c(n1)CN([C@H]1CO[C@H](c3cc(F)ccc3F)[C@@H](N)C1)C2 | rep main protease | reporter gene (Gaussia luciferase), inhibitor |  | 20 µM |  | inhibition | -0.317% |
| O=C(O)c1cccc(C(=O)O)n1 | dihydrodipicolinate synthase (Bacillus anthracis, UniProt A0A6L7H340) | uncompetitive inhibitor |  | added: pyruvate |  | Ki | 16 mM |
| Cc1[nH]c(/C=C2\C(=O)Nc3ccc(F)cc32)c(C)c1C(=O)NCCN1CCCC1.O=P(O)(O)O | rep main protease | reporter gene (mKate2), inhibitor |  | 20 µM |  | inhibition | -0.892% |
| Cn1cnc(Cn2c(=O)[nH]/c(=N\c3cc4cn(C)nc4cc3Cl)n(Cc3cc(F)c(F)cc3F)c2=O)n1 |  |  | human, mild renal impairment | oral, 375 mg, vessel puncture site haemorrhage TEAE, Severe severity |  | patients with adverse event | 0% |
| O=c1c(O)c(-c2ccc(O)cc2O)oc2cc(O)cc(O)c12 | Spike glycoprotein | binding, BLI |  |  |  | koff | 0.0245 s⁻¹ |

For quick reference, copied from above:
| SMILES | tested on | test | system | setting | scale | quantity | result |
| --- | --- | --- | --- | --- | --- | --- | --- |
| Cc1cncc(CC(=O)N2CC3(CC[C@H](CNC(=O)[C@@]4(O)CCc5ccccc5C4)O3)C2)c1 | rep main protease | enzyme activity, inhibitor |  | 5 µM, mean of runs |  | inhibition | 13.5% |
| CCc1c(C(=O)C(N)=O)c2c(OCC(=O)O)cccc2n1Cc1ccccc1 | Daboia russelii venom phospholipase A2 | enzyme activity, inhibitor | MP population | 0.1 µM, added: NOB substrate | reference: venom alone | remaining activity | 90.2% and 95.6% and 100% |
| CS(=O)(=O)n1cc2c(n1)CN([C@H]1CO[C@H](c3cc(F)ccc3F)[C@@H](N)C1)C2 | rep main protease | reporter gene (Gaussia luciferase), inhibitor |  | 20 µM |  | inhibition | -0.317% |
